Experimental data of several laboratories.
Lines come from different studies, so protocols differ. Several values in a cell are separate wells, animals, samples, runs or records. Numbers after ± are the reported error.

CSCCNc1nc(SCCC(F)(F)F)nc2c1ncn2[C@@H]1O[C@H](COP(=O)(O)OP(=O)(O)C(Cl)(Cl)P(=O)(O)O)[C@@H](O)[C@H]1O  inhibition (ADP-induced platelet aggregation, LTA; human patients, platelet-rich plasma; dose not given, 1 h, added: ADP 20 µM): 32.6 ± 19.6%
Cc1ccc([C@@H]2O[C@H](CO)[C@@H](O)[C@H](O)[C@H]2O)cc1Cc1ccc(-c2ccc(F)cc2)s1  change in 24-h mean serum insulin (Japanese type 2 diabetes patients; 200 mg, day 1; reference: day 0): -1.5 µU/mL
O=C1O[C@H]([C@@H](O)CO)C(O)=C1O  inhibition (hydroxyl radical scavenging; 80 µM): 36.5%
O=C1N(Cc2ccccc2Cl)c2ccccc2C12NN=C(c1ccccc1)S2 (stereo not drawn)  T/C (HL-60 xenograft, mouse; intravenous, 776 mg/kg total, xenograft; reference: vehicle): > 100%
COc1ccccc1[C@H](Cn1c(=O)n(C(C)(C)C(=O)O)c(=O)c2c(C)c(-c3ncco3)sc21)OC1CCOCC1  fractional hepatic DNL ([1-13C]acetate infusion, isotopomer analysis; overweight or obese healthy men, plasma VLDL-TG palmitate; oral, 50 mg single dose, 6 h post-dose, added: oral fructose): 6.62 % new palmitate
NC/C(=C\F)COc1cccc(Cn2c(=S)[nH]c(=O)c3[nH]cnc32)c1  fibrosis area (mouse, unilateral ureteral obstruction, right kidney (control); dose not given): 1.09% and 0.74% and 0.27% and 0.41% and 0.6% and 1.92% and 1.2%
[Cl-].[Cl-].[Pt+2].[Ru+2].c1ccc(-c2nc3ccccc3nc2-c2ccccn2)nc1.c1cnc2c(c1)ccc1cccnc12.c1cnc2c(c1)ccc1cccnc12  negative activation entropy (chloride substitution, UV-vis kinetics; aqueous buffer; concentration not given, pH 7.2, first substitution step, added: L-methionine): 175 ± 6 J/(mol·K)
N#Cc1ccn2c(-c3ccncc3)c(-c3ccc(F)cc3)nc2c1  log2 fold change (kinase binding, competitor, MIB/MS competition, measured: PKH2; Candida albicans cell lysate; 1 µM; reference: DMSO): -0.17
O=c1cc(-c2ccc(O)cc2)oc2c([C@@H]3OC[C@H](O)[C@H](O)[C@H]3O)c(O)c([C@@H]3O[C@H](CO)[C@@H](O)[C@H](O)[C@H]3O)c(O)c12  BNP mRNA level (RT-qPCR; HFpEF mice, AngII-treated, heart; dose not given; reference: AngII alone): decreased
O[C@H]1CCCN[C@@H]1CCCn1cnc2c(Cl)c(Cl)ccc21  AUC(0-tau) (ELISA, measured: Pro-C6; healthy human volunteers, serum; intraduodenal, 200 mg twice daily, day 14, multiple ascending dose): 132 ng·h/mL
C[C@H]1C[C@H]2CSC(N)=N[C@@]2(c2nc(NC(=O)c3ccc(OC(F)F)cn3)cs2)CO1  percent change from baseline (measured: Aβ1-40; healthy adults, plasma; 275 mg once daily, day 4; reference: placebo): -87.3%
N#Cc1ccc2c(c1)[C@H]1CCCN(C(=O)c3ccc4[nH]cnc4c3)[C@H]1C2  systolic blood pressure change (human, Phase II trial; oral, 240 mg once daily, day 28, adjusted mean, SE): -2.3 mmHg
C[C@H](Oc1ccc(Br)cc1-c1ccon1)C(=O)O  difference from placebo (response peak; human, tibialis anterior muscle; 50 mg, 30 Hz+30 s): 13.1%
NCC(=O)Nc1cncc(-c2nn3c(=O)cc(N4CCNCC4)nc3s2)c1  inhibition (ADP-induced platelet aggregation, light transmission aggregometry; human, stable CAD on aspirin, platelets ex vivo; subcutaneous, 0.075 mg/kg, 240 min post-dose, added: ADP 20 µM): 8%
CN(C(=O)n1cnc(-c2ccc[n+]([O-])c2)c1)C1CCCCC1  AUC(0-t) (measured: OEA; human, plasma; 5 mg single dose): 724 ng·h/mL
CC(C)C[C@@H](NC(=O)[C@H](C)NC(=O)CNC(=O)[C@@H](NC=O)C(C)C)C(=O)N[C@@H](C)C(=O)N[C@@H](C(=O)N[C@H](C(=O)N[C@@H](C(=O)N[C@@H](Cc1c[nH]c2ccccc12)C(=O)N[C@H](CC(C)C)C(=O)N[C@@H](Cc1c[nH]c2ccccc12)C(=O)N[C@H](CC(C)C)C(=O)N[C@@H](Cc1c[nH]c2ccccc12)C(=O)N[C@H](CC(C)C)C(=O)N[C@@H](Cc1c[nH]c2ccccc12)C(=O)NCCO)C(C)C)C(C)C)C(C)C  EC50 (H+/Na+ transport, pyranine pH-gradient; EYPC/EYPG LUVs 19:1): 4.29 ± 0.32 nM
C[C@@H](O)CCOC(=O)C[C@@H](C)O  metabolite level (measured: Glx; human, plasma; 60 min, log2-transformed values): 6.64 ± 0.32 µmol/L
O=C(O)CNC(=O)Cc1ccccc1  sarcomere length (ventricular cardiomyocytes, C57BL/6 mouse; dose not given, 0.232 s): 1.63 µm

Some of these lines once more:
O[C@H]1CCCN[C@@H]1CCCn1cnc2c(Cl)c(Cl)ccc21  AUC(0-tau) (ELISA, measured: Pro-C6; healthy human volunteers, serum; intraduodenal, 200 mg twice daily, day 14, multiple ascending dose): 132 ng·h/mL
O=c1cc(-c2ccc(O)cc2)oc2c([C@@H]3OC[C@H](O)[C@H](O)[C@H]3O)c(O)c([C@@H]3O[C@H](CO)[C@@H](O)[C@H](O)[C@H]3O)c(O)c12  BNP mRNA level (RT-qPCR; HFpEF mice, AngII-treated, heart; dose not given; reference: AngII alone): decreased
N#Cc1ccc2c(c1)[C@H]1CCCN(C(=O)c3ccc4[nH]cnc4c3)[C@H]1C2  systolic blood pressure change (human, Phase II trial; oral, 240 mg once daily, day 28, adjusted mean, SE): -2.3 mmHg
